{"data": "Published values of several laboratories", "note": "Protocols differ between the studies behind these lines. ± marks the error that the study gave."}
{"Compound": "C[C@]1(O)C[C@@](N)(c2ccc(-c3nc4n(c3-c3ccccc3)COc3ccncc3-4)cc2)C1", "system": "human, advanced or metastatic solid tumours", "conditions": "dose not given, all patients, any grade", "quantity": "patients with Nausea TEAE", "result": "17.6%"}
{"Compound": "COc1ccnc(C(=O)N[C@H]2COC(=O)[C@H](Cc3ccccc3)[C@@H](OC(=O)C(C)C)[C@H](C)OC2=O)c1OCOC(=O)C(C)C", "system": "Staffordshire loam sediment, aerobic dark", "conditions": "20 °C", "quantity": "DT50 whole system", "result": "0.34 days"}
{"Compound": "Cc1cccc(Cn2nc(C3CC3)c3c(NC(=O)c4cnc5cc(OCCN6CCN(C)CC6)ccn45)cccc32)n1", "assay": "CTCAE v4.03, refers to: abdominal pain", "system": "advanced solid tumour patients", "conditions": "oral, dose not given, all cohorts, with: pembrolizumab IV every 3 weeks", "quantity": "all-cause adverse events", "result": "26.3%"}
{"Compound": "CC(=O)c1c(C)c2cnc(Nc3ccc(C4CCN(CCS(C)(=O)=O)CC4)cn3)nc2n(C2CCCC2)c1=O", "system": "human, plasma", "conditions": "oral, 150 mg, day 1 single dose", "quantity": "Tmax", "result": "4.13 h"}
{"Compound": "O=C(Nc1ccccc1)C1CCN(C(=O)Oc2cccnc2)CC1", "assay": "psychotropic effects VAS", "system": "healthy women", "conditions": "20 mg", "how to read": "relative to: pre-dose baseline, direction not given", "quantity": "change in Suspicious score", "result": 1.1}
{"Compound": "C#C[C@]1(CO)O[C@@H](n2cnc3c(N)nc(F)nc32)C[C@@H]1O", "system": "monkey", "conditions": "oral, 75 mg/kg every 3 days, 29 days", "quantity": "tolerability", "result": "not toxic"}
{"Compound": "Cc1cc(NC2CCN(C(=O)OC3CCN(C(=O)/C=C/CN(C)C)C3)CC2)n2ncc(C(C)C)c2n1 (centres unmarked)", "system": "dog", "conditions": "oral, daily for 4 weeks", "quantity": "highest non-severely toxic dose", "result": "2 mg/kg"}
{"Compound": "CC(C)(c1ccccc1)c1cc(-n2nc3ccccc3n2)c(O)c(C(C)(C)c2ccccc2)c1", "assay": "exposure assessment", "system": "human, age 21-60 years", "conditions": "foundation", "quantity": "mean daily dermal uptake", "result": "0.48 ng/kg body weight/day"}
{"Compound": "Cc1ncnc2c1ccn2[C@@H]1C[C@H](Oc2cc(C(F)F)c(F)c3c2CNCC3)[C@@H](O)[C@H]1O", "system": "patients", "conditions": "dose not given, grade ≥3", "how to read": "relative to: patients", "quantity": "Vomiting incidence", "result": "0%"}
{"Compound": "COc1ccc(-c2c(-c3ccc(C#N)c(F)c3)nc(N3CCC(N)CC3)n(C)c2=O)cc1F", "assay": "refers to: decreased appetite", "system": "relapsed/refractory MZL patients", "conditions": "oral, 60 mg, dose expansion", "quantity": "grade 3-4 TRAE incidence", "result": "0%"}
{"Compound": "O=C1Nc2cc3[nH]nc(-c4ccncc4)c3cc2CN1Cc1ccccc1", "assay": "CTCAE v4.03", "system": "advanced solid tumour patients", "conditions": "intravenous, 3.6 mg/kg", "quantity": "patients with macular oedema", "result": "0%"}
{"Compound": "Fc1ccc([C@@H]2CCNC[C@H]2COc2ccc3c(c2)OCO3)cc1", "assay": "refers to: Insomnia", "system": "healthy volunteers", "conditions": "oral, dose not given, given -1 h relative to LSD, with: LSD", "how to read": "direction not given", "quantity": "List of Complaints score", "result": "2 score"}
{"Compound": "CCN1CCN(Cc2ccc(Nc3ncc(F)c(-c4cc(F)c5nc6n(c5c4)[C@H](C)CCC6)n3)nc2)CC1", "system": "advanced solid tumour patients", "conditions": "dose not given, Phase Ia monotherapy", "quantity": "Dizziness incidence, any grade", "result": "33.3%"}
{"Compound": "COc1ccc([C@@H]2CC(=O)c3c(O)cc(O)cc3O2)cc1O", "system": "Sprague-Dawley rat, male, obese, urine", "conditions": "oral, 100 mg/kg neohesperidin, 48 h", "how to read": "relative to: dose", "quantity": "urinary recovery", "result": "0.616 ± 0.13%"}
{"Compound": "O[C@H]1CCCN[C@@H]1CCCn1cnc2c(Cl)c(Cl)ccc21", "system": "healthy human, plasma", "conditions": "oral, 150 mg twice daily, steady state", "quantity": "AUCtau", "result": "1260 ng·h/mL"}
{"Compound": "Cc1cccc(N=Nc2ccc3[nH]cc(CCN(C)C)c3c2)c1", "assay": "light irradiation", "system": "solution", "conditions": "with: light 385 nm", "quantity": "cis isomer at photostationary state", "result": "80%"}
{"Compound": "Cn1nccc1[C@]1(CNC(=O)c2ccc(F)c(F)c2-c2ccc(C(F)(F)F)cc2)NC(=O)NC1=O", "system": "dog", "conditions": "intravenous, 0.3 mg/kg", "quantity": "dose-normalised AUC", "result": "88 kg·h/L"}
{"Compound": "O=S(=O)(Nc1ccccc1)c1ccc(NC(=S)Nc2ccccc2)cc1", "system": "mouse, male, blood", "conditions": "oral, 5 mg/kg daily, 14 days", "quantity": "mean corpuscular haemoglobin concentration", "result": "31.4 g/dL"}
{"Compound": "CN1CC[C@@H](c2c(O)cc(O)c3c(=O)cc(-c4ccc(C(F)(F)F)cc4Cl)oc23)[C@@H]1CO", "assay": "refers to: Lymphopenia", "system": "relapsed or refractory haematological malignancies", "conditions": "oral, dose not given, grade 3 to 4", "quantity": "adverse event incidence", "result": "7.5%"}
{"Compound": "CN(C)C1(CNC(=O)c2ccc3c(c2)CCN3C(=O)c2ccccc2)CCOCC1", "system": "male C57BL/6 mice", "conditions": "intraperitoneal, 50 mg/kg, 30 min", "quantity": "unbound brain concentration", "result": "597 nM"}
{"Compound": "CC(C)(O)c1cc(Nc2cc(Oc3cn(C4CC4)nc3C3CCOCC3)ccn2)ccn1", "assay": "refers to: Asthenia", "system": "Japanese patients with advanced cancer", "conditions": "oral, dose not given, any grade", "quantity": "treatment-emergent adverse events", "result": "0%"}
{"Compound": "O.O.O.O.O.O.[Cl-].[Cl-].[Co+2]", "system": "Crl:CD(SD) rat female, blood", "conditions": "oral, 7.44 mg Co/kg/day, 90 days", "quantity": "red blood cell count", "result": "9.15 ×10E6/µl"}
{"Compound": "O=C(O)CCCOc1ccc(F)cc1-c1cc(-c2ccccc2C(F)(F)F)n(-c2ccccc2)n1", "assay": "refers to: α2-glb", "system": "Crl:CD(SD) rats, female, serum", "conditions": "iv, 25 µg/kg, 1 day", "quantity": "serum protein fraction", "result": "8.4 ± 0.6%"}
{"Compound": "CN(C(=O)n1cnc(-c2ccc[n+]([O-])c2)c1)C1CCCCC1", "system": "medium without cells", "conditions": "100 nM, 0 h", "quantity": "concentration", "result": "90 ± 5 nM"}
{"Compound": "COc1cc2c(cc1OC)CN(CCc1ccc(NC(=O)c3cccc4c(=O)c5cccc(OC)c5[nH]c34)cc1)CC2", "system": "CD-1 mouse, male, plasma", "conditions": "intraperitoneal, 10 mg/kg", "quantity": "half-life", "result": "13.9 h"}
{"Compound": "CCc1ccc(CC/C=C/c2ccc3c(c2)C(=O)CC3)cc1", "system": "Sprague-Dawley rat, male", "conditions": "oral, 120 mg/kg/day, 14 days", "quantity": "Reticulocyte percentage", "result": "5.94%"}
{"Compound": "C[C@]1(CO)Cc2ncn(-c3ccc(C#N)c(Cl)c3)c2C(=O)O1", "system": "human", "conditions": "80 mg multiple doses, fasted", "quantity": "subjects with drug-related fatigue", "result": "11.1%"}
{"Compound": "COc1cc2c(Oc3ccc4[nH]c(C)cc4c3F)ccnc2cc1OCC1(N)CC1", "system": "paediatric recurrent refractory sarcoma", "conditions": "8 mg/kg", "quantity": "grade 3 Hypothyroidism", "result": "0%"}
{"Compound": "C=CC(=O)Nc1cc(Nc2nccc(Nc3cc(Cl)c(F)cc3C(C)(C)O)n2)c(OC)cc1N1CC[C@@H](N(C)C)C1", "assay": "treatment-emergent adverse events", "system": "human", "conditions": "oral, 50 mg, phase I clinical trial", "quantity": "incidence of blood creatine phosphokinase increased", "result": "0%"}
{"Compound": "C[C@@H]1COCCN1c1cc([C@]2(O)C[C@H]3CC[C@@H](C2)O3)c2cnn(-c3cc[nH]n3)c2n1", "system": "NOD-SCID tumour-bearing mice", "conditions": "oral, 14 days, 3 days on 4 off weekly", "quantity": "MTD", "result": "30 mg/kg"}
{"Compound": "Cc1cc(C)c(CNC(=O)c2cc(Cl)c3c(c2C)O[C@@](C)([C@H]2CC[C@H](N(C)C)CC2)O3)c(=O)[nH]1", "system": "relapsed/refractory NHL patients", "conditions": "dose not given, all TEAEs, safety set", "quantity": "grade 5 acute myeloid leukaemia incidence", "result": "0%"}
{"Compound": "COc1ccc2c(c1)CN(C(=O)CCN1CCC(Cc3ccccc3)CC1)CC[S@@+]2[O-]", "system": "dogs, chronic AV block", "conditions": "intravenous, 1 and 3 mg/kg", "quantity": "short-term variability of QT", "result": "no effect"}
{"Compound": "C[C@@H]1OC(=O)NN=C1c1ccc(-c2ccc(F)cc2)c(C(F)(F)F)c1", "assay": "phase I trial, refers to: Dyspnoea worst grade 2", "system": "human patients", "conditions": "5 mg once daily", "quantity": "patients with adverse event", "result": "0%"}
{"Compound": "CO[C@H]1C[C@@H]2CC[C@@H](C)[C@@](O)(O2)C(=O)C(=O)N2CCCC[C@H]2C(=O)O[C@H]([C@H](C)C[C@@H]2CC[C@@H](OC(=O)NCCOCCOCCOCCOCCOCCOCCOCCOCCC(=O)N3CCc4cc(Cn5nc(-c6ccc7oc(N)nc7c6)c6c(N)ncnc65)ccc4C3)[C@H](OC)C2)C[C@@H](O)[C@H](C)/C=C(\\C)[C@@H](O)[C@@H](OC)C(=O)[C@H](C)C[C@H](C)/C=C/C=C/C=C/1C", "system": "patients with advanced solid tumours", "conditions": "intravenous, 1.6 mg/3 mg weekly, any grade", "quantity": "incidence of any TRAE", "result": "100%"}
{"Compound": "CC(C)CC(=O)OC[C@H]1O[C@@](C#N)(c2ccc3c(N)ncnn23)[C@H](O)[C@@H]1O", "assay": "plasma protein binding", "system": "rat plasma", "conditions": "0.9 µM", "quantity": "bound fraction", "result": 0.921}
{"Compound": "C[C@@H](NC(=O)N1C(=O)[C@H](Cc2ccnc(N)c2)[C@H]1C(=O)O)C1CCCCC1", "system": "healthy adult Chinese volunteers", "conditions": "continuous intravenous infusion, 1.5 mg/kg/h, 5-day infusion, CTCAE 5.0 grading", "quantity": "incidence of AEs leading to discontinuation", "result": "0%"}
{"Compound": "NCCCC[C@@H]1NC(=O)[C@@H](Cc2c[nH]c3ccccc23)NC(=O)[C@H](c2ccccc2)NC(=O)[C@@H]2C[C@@H](OC(=O)NCCN)CN2C(=O)[C@H](Cc2ccccc2)NC(=O)[C@H](Cc2ccc(OCc3ccccc3)cc2)NC1=O", "system": "healthy volunteers, male", "conditions": "600 µg twice daily, 1.5 h, post hoc", "quantity": "placebo-corrected QTcF change", "result": "10.4 ms"}
{"Compound": "CC1(C)[C@H](C(=O)O[C@H](C#N)c2cccc(Oc3ccccc3)c2)[C@@H]1C=C(Br)Br", "assay": "refers to: CYP2B6", "system": "human, age 6 months, recombinant human CYP2B6", "conditions": "0.1 µM", "quantity": "enzyme contribution to clearance", "result": "0.39%"}
{"note": "Some of these lines once more:"}
{"Compound": "C[C@]1(CO)Cc2ncn(-c3ccc(C#N)c(Cl)c3)c2C(=O)O1", "system": "human", "conditions": "80 mg multiple doses, fasted", "quantity": "subjects with drug-related fatigue", "result": "11.1%"}
{"Compound": "O=C(O)CCCOc1ccc(F)cc1-c1cc(-c2ccccc2C(F)(F)F)n(-c2ccccc2)n1", "assay": "refers to: α2-glb", "system": "Crl:CD(SD) rats, female, serum", "conditions": "iv, 25 µg/kg, 1 day", "quantity": "serum protein fraction", "result": "8.4 ± 0.6%"}
{"Compound": "CCN1CCN(Cc2ccc(Nc3ncc(F)c(-c4cc(F)c5nc6n(c5c4)[C@H](C)CCC6)n3)nc2)CC1", "system": "advanced solid tumour patients", "conditions": "dose not given, Phase Ia monotherapy", "quantity": "Dizziness incidence, any grade", "result": "33.3%"}
{"Compound": "O=C(Nc1ccccc1)C1CCN(C(=O)Oc2cccnc2)CC1", "assay": "psychotropic effects VAS", "system": "healthy women", "conditions": "20 mg", "how to read": "relative to: pre-dose baseline, direction not given", "quantity": "change in Suspicious score", "result": 1.1}
